Measurements from different studies.
Each line is one published result; not all experiments were run side by side. Numbers after ± are the reported error.

CC[C@H](C)C(=O)N1CCC(NC(=O)Nc2ccc(OC(F)(F)F)c(F)c2)CC1 — subjects with limb injury TEAE (healthy volunteers; oral, 24 mg single dose): 0%
CC[C@H](C)[C@H](NC(=O)CNC(=O)[C@H](CC(=O)O)NC(=O)[C@H](CC(C)C)NC(=O)[C@@H](NC(=O)[C@H](CC(N)=O)NC(=O)[C@H](CCC(N)=O)NC(=O)CNC(=O)[C@H](CC(C)C)NC(=O)[C@H](CCCCN)NC(=O)[C@H](CCC(=O)O)NC(=O)[C@@H](NC(=O)[C@H](CCCCN)NC(=O)[C@H](CCC(=O)O)NC(=O)[C@H](Cc1ccccc1)NC(=O)[C@H](CC(C)C)NC(=O)[C@H](CCCCN)NC(=O)[C@H](Cc1c[nH]c2ccccc12)NC(=O)[C@@H](N)CCC(=O)O)[C@@H](C)CC)[C@@H](C)CC)C(=O)N[C@H](C(=O)N[C@@H](CCCCN)C(=O)N[C@@H](CC(C)C)C(=O)NCC(=O)N1CCC[C@H]1C(=O)N[C@@H](CC(C)C)C(=O)N[C@@H](CC(C)C)C(=O)N[C@@H](C)C(=O)N[C@@H](CC(C)C)C(=O)N[C@@H](CC(C)C)C(=O)NCC(=O)N[C@@H](CCC(N)=O)C(=O)N[C@@H](CC(C)C)C(=O)N[C@H](C(=O)N[C@@H](CCC(N)=O)C(=O)N[C@H](C(=O)N[C@@H](C)C(=O)N[C@@H](CC(C)C)C(N)=O)[C@@H](C)CC)[C@@H](C)O)[C@@H](C)CC — helicity (circular dichroism; phosphate buffer 10 mM; 1 to 5 µM, pH 7.5, approximate): ~30%
C/C=C/C=C/C/C=C/CCCCCCCc1cccc(O)c1O — tissue concentration (female Kunming mice, tumour-bearing, liver; intravenous, 10 mg/kg, 4 h): 17500 ± 2230 ng/g
CC(C)[C@H](NC(=O)CNC(=O)[C@H](CCC(N)=O)NC(=O)[C@H](C)N)C(=O)O — subjects with adverse event (healthy male volunteers; 15, 45, 90 mg/kg/h): 29%
CC(CCC(=O)NCC(=O)O)C1CCC2C3C(O)CC4CC(OC5OC(C(=O)O)C(O)C(O)C5O)CCC4(C)C3CCC12C (stereo not drawn) — plasma concentration (human, SLCO1B1 *5/*35, plasma; geometric mean, sex-adjusted): 46.7 ng/mL
CC(C)[C@@H]1NC(=O)[C@H](Cc2ccccc2)NC(=O)[C@H](Cc2ccc(O)cc2)NC(=O)CCSSC[C@@H](C(=O)N2CCC[C@H]2C(=O)N[C@H](CCCNC(=N)N)C(=O)NCC(N)=O)NC(=O)[C@H](CCC(N)=O)NC1=O — AST (Wistar rat, blood; intravenous, 10 µg/kg single dose, 72 h): 51.2 ± 30.6 IU/L
[3H]c1sc(C)nc1C=C(C)C1CC2C(CCCC(C)C(O)C(C)C(=O)C(C)(C)C(O)CC(=O)O1)N2CCO (stereo not drawn) — radioactivity in tissue (whole-body autoradiography; CD2F1 mice, M109 FR− tumour periphery; intravenous, 2.2 nmol/kg, 24 h): 1.6 ± 0.7 µg-eq/g
CCCC[C@@H]1NC(=O)[C@H](Cc2ccc(O)cc2)NC(=O)[C@@H]2CCCN2C(=O)[C@H](CC(=O)O)NC(=O)[C@H](C)NC(=O)[C@H](Cc2ccccc2)NC(=O)[C@@H]2CSCCC(=O)N3CN(CN(C3)C(=O)CCSC[C@@H](C(=O)N[C@@H](C)C(N)=O)NC1=O)C(=O)CCSC[C@H](NC(C)=O)C(=O)N[C@@H](CC(C)(C)C)C(=O)N1CCC[C@H]1C(=O)N[C@@H](CCC(=O)O)C(=O)N[C@H](CCCCNC(=O)CCc1cn(CCOCCOCCOCCN(CCOCCOCCOCCC(=O)N[C@H]3CSCCC(=O)N4CN5CN(C4)C(=O)CCSC[C@H](NC(=O)[C@@H](CC(=O)O)NC(=O)[C@H](Cc4cccc6ccccc46)NC(=O)[C@@H]4CCCN4C3=O)C(=O)N[C@@H](CCSC)C(=O)N[C@@H](CCCCNC(=N)N)C(=O)N[C@@H](CC(=O)O)C(=O)N[C@@H](Cc3c[nH]c4ccccc34)C(=O)N[C@@H](CO)C(=O)N[C@@H]([C@@H](C)O)C(=O)N3CCC[C@H]3C(=O)N3C[C@H](O)C[C@H]3C(=O)N[C@@H](Cc3c[nH]c4ccccc34)C(=O)N[C@H](C(N)=O)CSCCC5=O)CCOCCOCCOCCn3cc(CCC(=O)NCCCC[C@H]4NC(=O)[C@H](CCC(=O)O)NC(=O)[C@@H]5CCCN5C(=O)[C@H](CC(C)(C)C)NC(=O)[C@@H](NC(C)=O)CSCCC(=O)N5CN6CN(C5)C(=O)CCSC[C@H](NC(=O)[C@H](Cc5ccc(O)cc5)NC(=O)[C@@H]5CCCN5C4=O)C(=O)N[C@@H](Cc4ccccc4)C(=O)N[C@@H](C)C(=O)N[C@@H](CC(=O)O)C(=O)N4CCC[C@H]4C(=O)N[C@@H](Cc4ccc(O)cc4)C(=O)N[C@@H](CCCC)C(=O)N[C@H](C(=O)N[C@@H](C)C(N)=O)CSCCC6=O)nn3)nn1)C(=O)N1CCC[C@H]1C(=O)N[C@@H](Cc1ccc(O)cc1)C(=O)N2 — clearance (cynomolgus monkey, plasma; intravenous, 1 mg/kg, infusion): 3.3 mL/min/kg
CC(C)[C@H](NC(=O)CNC(=O)[C@H](CCC(N)=O)NC(=O)[C@H](C)N)C(=O)O — unrelated adverse events (human; single dose, 1 mg/kg, unlikely related or unrelated): 0%
O=C(NCCCCCn1ccc2ccc(F)cc21)Oc1cccc(F)c1 — parent remaining (porcine liver S9 fraction; 20 µM, 30 min): 62 ± 5%
COC(=O)C[C@](O)(CCCC(C)(C)OC(C)=O)C(=O)O[C@@H]1C(OC)=C[C@]23CCCN2CCc2cc4c(cc2[C@H]13)OCO4 — tissue concentration (CD1 mouse, brain; oral, 1 mg/kg, 24 h, below quantification limit 1.00 ng/mL): not detected
CSCC[C@@H]1NC(=O)[C@@H]2CSSC[C@H](NC(=O)[C@H](CO)NC(=O)[C@H](C)N)C(=O)N[C@@H](CCCNC(=N)N)C(=O)N[C@@H]([C@@H](C)O)C(=O)N3CCC[C@H]3C(=O)N[C@@H](CCCCN)C(=O)N[C@@H](CC(=O)O)C(=O)N[C@H]3CSSC[C@H](NC(=O)[C@H](CCCCN)NC(=O)[C@H](CCCNC(=N)N)NC(=O)[C@H](CC(N)=O)NC1=O)C(=O)N[C@@H](CCCCN)C(=O)N[C@H]1CSSC[C@H](NC(=O)[C@@H]4CCCN4C(=O)[C@H](CC(=O)O)NC(=O)[C@H](C)NC3=O)C(=O)N[C@@H](C)C(=O)N[C@@H](CCCCN)C(=O)N[C@@H](CCC(=O)O)C(=O)N[C@@H]([C@@H](C)O)C(=O)NCC(=O)N[C@@H](CSSC[C@@H](C(N)=O)NC(=O)[C@H](CCCNC(=N)N)NC(=O)[C@H](CC(N)=O)NC1=O)C(=O)N1CCC[C@H]1C(=O)N[C@@H](Cc1ccc(O)cc1)C(=O)NCC(=O)N[C@@H](CCCCN)C(=O)N2 — Chloride (DA rat pristane-induced arthritis, serum; subcutaneous, 0.1 mg/kg single dose at onset, 21 days): 98.6 mmol/L
CCNc1cc2[o+]c3cc(NCC)c(C)cc3c(-c3ccccc3C(=O)OCCOCC[18F])c2cc1C — radioactivity concentration (PET; rat, liver; dose not given, 5 min p.i.): 59 ± 2 kBq/cm³
[11CH3]n1c(=O)n(CCCO)c(=O)c2c1nc(Oc1cccc(OC(F)(F)F)c1)n2Cc1ccc(Cl)cc1 — tracer uptake (ex vivo biodistribution; Sprague Dawley rat, kidney; 60 min post injection): 0.82 ± 0.16 %ID/g
CC1=C(/C=C/C(=O)N2CCN(C(N)=O)CC2)C(C)(C)CCC1 — tolerability (dog): not toxic
Nc1ccc(OC(=O)NC2CCCCC2)cc1-c1ccccc1 — log hydrolysis rate constant (rat liver S9 fraction; added: NADPH-regenerating system): -0.86
CC(C)C[C@H](NC(=O)[C@H](CCCCN)NC(=O)[C@H](CCC(=O)O)NC(=O)[C@H](C)NC(=O)[C@@H](NC(=O)[C@H](CCCCN)NC(=O)[C@H](CC(=O)O)NC(=O)[C@H](Cc1ccc(O)cc1)NC(=O)[C@H](Cc1ccccc1)NC(=O)[C@H](C)NC(=O)[C@H](CCCCN)NC(=O)[C@H](CC(C)C)NC(=O)[C@H](Cc1c[nH]c2ccccc12)NC(=O)[C@@H](N)CC(=O)O)C(C)C)C(=O)N[C@@H](CCCCN)C(=O)N[C@@H](CCC(=O)O)C(=O)N[C@@H](C)C(=O)N[C@@H](Cc1ccccc1)C(=O)N1CCC[C@H]1C(=O)N[C@@H](CC(=O)O)C(=O)N[C@@H](Cc1c[nH]c2ccccc12)C(=O)N[C@@H](C)C(=O)N[C@@H](CCCCN)C(=O)N[C@@H](C)C(=O)N[C@@H](C)C(=O)N[C@@H](Cc1ccc(O)cc1)C(=O)N[C@@H](CC(=O)O)C(=O)N[C@@H](CCCCN)C(=O)N[C@@H](C)C(=O)N[C@@H](C)C(=O)N[C@@H](CCC(=O)O)C(=O)N[C@@H](CCCCN)C(=O)N[C@@H](C)C(=O)N[C@@H](CCCCN)C(=O)N[C@@H](CCC(=O)O)C(=O)N[C@@H](C)C(=O)N[C@@H](C)C(=O)O — Tmax (cynomolgus monkey female, plasma; intravenous infusion, 25 mg/kg, day 1, 30 min infusion): 0 h
[2H]C([2H])([2H])C([2H])([2H])C([2H])([2H])OC(C(=O)OC1CCNCC1)(c1ccccc1)c1ccccc1 — adverse drug reactions (measured: diarrhea; healthy Japanese male; oral, 18 mg, 16 days, multiple ascending dose): 14.3%
C[C@]12CC[C@H](O)CC1CCC1C2[C@H](O)C(=O)[C@]2(C)[C@@H](c3ccc(=O)oc3)CC[C@]12O (stereo partly drawn) — Km (sulfation, substrate; pig liver cytosol; pH 7.4): 137 ± 10.9 µM
CCCCCCCCCCCCC(=O)O.O=C1CCCC2C3CCCN4CCCC(CN12)C34 (stereo not drawn) — entropic term −TΔS of micellization (electrical conductivity; water; 298.15 K, critical micelle concentration): -6.32 kcal/mol
CCc1noc(CC)c1C(=O)O[C@H]1C(C)=C[C@]23C(=O)[C@@H](C=C(CO)[C@@H](O)[C@]12O)[C@H]1[C@@H](C[C@H]3C)C1(C)C — epidermal concentration (human, epidermis, Franz diffusion cell; topical, 0.1% in hydroalcoholic gel, 21 h, stratum corneum removed): 100 µM

Repeated from above:
CCc1noc(CC)c1C(=O)O[C@H]1C(C)=C[C@]23C(=O)[C@@H](C=C(CO)[C@@H](O)[C@]12O)[C@H]1[C@@H](C[C@H]3C)C1(C)C — epidermal concentration (human, epidermis, Franz diffusion cell; topical, 0.1% in hydroalcoholic gel, 21 h, stratum corneum removed): 100 µM
CC[C@H](C)C(=O)N1CCC(NC(=O)Nc2ccc(OC(F)(F)F)c(F)c2)CC1 — subjects with limb injury TEAE (healthy volunteers; oral, 24 mg single dose): 0%
CC1=C(/C=C/C(=O)N2CCN(C(N)=O)CC2)C(C)(C)CCC1 — tolerability (dog): not toxic
